Measurements gathered from unrelated publications.
Compare with care: the assays were run in different laboratories. Values joined by “and” are separate records of one study, mostly repeats; a detail may differ. Numbers after ± are the reported error.
B1: ARGLU1; sequence looked up; chain MGRSRSRSSSRSKHTKSSKHNKKRSRSRSRSRDKERVRKRSKSRESKRNRRRESRSRSRSTNTAVSRRERDRERASSPPDRIDIFGRTVSKRSSLDEKQKREEEEKKAEFERQRKIRQQEIEEKLIEEETARRVEELVAKRVEEELEKRKDEIEREVLRRVEEAKRIMEKQLLEELERQRQAELAAQKAREEEERAKREELERILEENNRKIAEAQAKLAEEQLRIVEEQRKIHEERMKLEQERQRQQKEEQKIILGKGKSRPKLSFSLKTQD
B2: CAND1; sequence looked up; chain ASASYHISNLLEKMTSSDKDFRFMATNDLMTELQKDSIKLDDDSERKVVKMILKLLEDKNGEVQNLAVKCLGPLVSKVKEYQVETIVDTLCTNMLSDKEQLRDISSIGLKTVIGELPPASSGSALAANVCKKITGRLTSAIAKQEDVSVQLEALDIMADMLSRQGGLLVNFHPSILTCLLPQLTSPRLAVRKRTIIALGHLVMSCGNIVFVDLIEHLLSELSKNDSMSTTRTYIQCIAAISRQAGHRIGEYLEKIIPLVVKFCNVDDDELREYCIQAFESFVRRCPKEVYPHVSTIINICLKYLTYDPNYNYDDEDEDENAMDADGGDDDDQGSDDEYSDDDDMSWKVRRAAAKCLDAVVSTRHEMLPEFYKTVSPALISRFKEREENVKADVFHAYLSLLKQTRPVQSWLCDPDAMEQGETPLTMLQSQVPNIVKALHKQMKEKSVKTRQCCFNMLTELVNVLPGALTQHIPVLVPGIIFSLNDKSSSSNLKIDALSCLYVILCNHSPQVFHPHVQALVPPVVACVGDPFYKITSEALLVTQQLVKVIRPLDQPSSFDATPYIKDLFTCTIKRLKAADIDQEVKERAISCMGQIICNLGDNLGSDLPNTLQIFLERLKNEITRLTTVKALTLIAGSPLKIDLRPVLGEGVPILASFLRKNQRALKLGTLSALDILIKNYSDSLTAAMIDAVLDELPPLISESDMHVSQMAISFLTTLAKVYPSSLSKISGSILNELIGLVRSPLLQGGALSAMLDFFQALVVTGTNNLGYMDLLRMLTGPVYSQSTALTHKQSYYSIAKCVAALTRACPKEGPAVVGQFIQDVKNSRSTDSIRLLALLSLGEVGHHIDLSGQLELKSVILEAFSSPSEEVKSAASYALGSISVGNLPEYLPFVLQEITSQPKRQYLLLHSLKEIISSASVVGLKPYVENIWALLLKHCECAEEGTRNVVAECLGKLTLIDPETLLPRLKGYLISGSSYARSSVVTAVKFTISDHPQPIDPLLKNCIGDFLKTLEDPDLNVRRVALVTFNSAAHNKPSLIRDLLDTVLPHLYNETKVRKELIREVEMGPFKHTVDDGLDIRKAAFECMYTLLDSCLDRLDIFEFLNHVEDGLKDHYDIKMLTFLMLVRLSTLCPSAVLQRLDRLVEPLRATCTTKVKANSVKQEFEKQDELKRSAMRAVAALLTIPEAEKSPLMSEFQSQISSNPELAAIFESIQKDSSSTNLESMDTS
B3: DDX46; sequence looked up; chain GRESRHYRKRSASRGRSGSRSRSRSPSDKRSKRGDDRRSRSRDRDRRRERSRSRDKRRSRSRDRKRLRRSRSRERDRSRERRRSRSRDRRRSRSRSRGRRSRSSSPGNKSKKTENRSRSKEKTDGGESSKEKKKDKDDKEDEKEKDAGNFDQNKLEEEMRKRKERVEKWREEQRKKAMENIGELKKEIEEMKQGKKWSLEDDDDDEDDPAEAEKEGNEMEGEELDPLDAYMEEVKEEVKKFNMRSVKGGGGNEKKSGPTVTKVVTVVTTKKAVVDSDKKKGELMENDQDAMEYSSEEEEVDLQTALTGYQTKQRKLLEPVDHGKIEYEPFRKNFYVEVPELAKMSQEEVNVFRLEMEGITVKGKGCPKPIKSWVQCGISMKILNSLKKHGYEKPTPIQTQAIPAIMSGRDLIGIAKTGSGKTIAFLLPMFRHIMDQRSLEEGEGPIAVIMTPTRELALQITKECKKFSKTLGLRVVCVYGGTGISEQIAELKRGAEIIVCTPGRMIDMLAANSGRVTNLRRVTYVVLDEADRMFDMGFEPQVMRIVDNVRPDRQTVMFSATFPRAMEALARRILSKPIEVQVGGRSVVCSDVEQQVIVIEEEKKFLKLLELLGHYQESGSVIIFVDKQEHADGLLKDLMRASYPCMSLHGGIDQYDRDSIINDFKNGTCKLLVATSVAARGLDVKHLILVVNYSCPNHYEDYVHRAGRTGRAGNKGYAYTFITEDQARYAGDIIKALELSGTAVPPDLEKLWSDFKDQQKAEGKIIKKSSGFSGKGFKFDETEQALANERKKLQKAALGLQDSDDEDAAVDIDEQIESMFNSKKRVKDMAAPGTSSVPAPTAGNAEKLEIAKRLALRINAQKNLGIESQDVMQQATNAILRGGTILAPTVSAKTIAEQLAEKINAKLNYVPLEKQEEERQDGGQNESFKRYEEELEINDFPQTARWKVTSKEALQRISEYSEAAITIRGTYFPPGKEPKEGERKIYLAIESANELAVQKAKAEITRLIKEELIRLQNSYQPTNKGRYKVL
B4: cystatin B; sequence looked up; chain MMCGAPSATQPATAETQHIADQVRSQLEEKENKKFPVFKAVSFKSQVVAGTNYFIKVHVGDEDFVHLRVFQSLPHENKPLTLSNYQTNKAKHDELTYF
B5: CDK4; sequence looked up; chain ATSRYEPVAEIGVGAYGTVYKARDPHSGHFVALKSVRVPNGGGGGGGLPISTVREVALLRRLEAFEHPNVVRLMDVCATSRTDREIKVTLVFEHVDQDLRTYLDKAPPPGLPAETIKDLMRQFLRGLDFLHANCIVHRDLKPENILVTSGGTVKLADFGLARIYSYQMALTPVVVTLWYRAPEVLLQSTYATPVDMWSVGCIFAEMFRRKPLFCGNSEADQLGKIFDLIGLPPEDDWPRDVSLPRGAFPPRGPRPVQSVVPEMEESGAQLLLEMLTFNPHKRISAFRALQHSYLHKDEGNPE
B6: DDX47; sequence looked up; chain AAPEEHDSPTEASQPIVEEEETKTFKDLGVTDVLCEACDQLGWTKPTKIQIEAIPLALQGRDIIGLAETGSGKTGAFALPILNALLETPQRLFALVLTPTRELAFQISEQFEALGSSIGVQSAVIVGGIDSMSQSLALAKKPHIIIATPGRLIDHLENTKGFNLRALKYLVMDEADRILNMDFETEVDKILKVIPRDRKTFLFSATMTKKVQKLQRAALKNPVKCAVSSKYQTVEKLQQYYIFIPSKFKDTYLVYILNELAGNSFMIFCSTCNNTQRTALLLRNLGFTAIPLHGQMSQSKRLGSLNKFKAKARSILLATDVASRGLDIPHVDVVVNFDIPTHSKDYIHRVGRTARAGRSGKAITFVTQYDVELFQRIEHLIGKKLPGFPTQDDEVMMLTERVAEAQRFARMELREHGEKKKRSREDAGDNDDTEGAIGVRNKVAGGKMKKRKGR

`HVLVMSATRR` has a triglycerides of 114 mg/dL and 86 mg/dL and 119 mg/dL and 75 mg/dL (peptide, C57BL/6J mice, male, serum; subcutaneous osmotic pump, 3 mg/kg/day peptide basis, 8 weeks).
With `insulin human` the fold change was 1.24 (item: KALRN mRNA; uninfected mouse, brain; i.p., dose not given; reference: PBS).
`cisplatin` has an IC50 of 20 ± 2 µM (A549).
For `TLHEYMLDV`, the specific lysis was 41.9% (Ca-Ski (HLA-A2+ HPV+); 111In release; peptide; concentration not given, 16 h, E:T 25:1 IVS 5, with: peptide-generated T-cell line).
The radial growth of `caspofungin` is reported as 0.369 and 0.366 and 0.343 (Aspergillus fumigatus; solid minimal medium; 0.125 µg/mL, 4 days, unit not given; reference: untreated control).
`B1 (ARGLU1)` — result for “log2 fold change”: -0.995 (peptide binding, SILAC pull-down; concentration not given; reference: non-acetylated over acetylated NIT1 peptide).
The retention time of `DPDPE` is reported as 3.98 min (RP-HPLC; HALO Phenyl-hexyl column; 25 µM, formic acid/acetonitrile, 10 min gradient).
For `GWTLNSAGYLLGPRRIDHLLMIKEMPIARGREEAPGA / YAVDNHRSFNDKHGFT-NH2 (C-amide)`, the colon length was 6.7 cm and 6 cm and 6.1 cm and 5.6 cm and 6.2 cm (Arrb2 flox control mice, DSS colitis; ip, 3 µM, 2% DSS).
`B2 (CAND1)`: “log2 fold change” 3.32 (peptide binding, SILAC pull-down; concentration not given; reference: non-acetylated over acetylated NIT1 peptide).
`heparin sodium` — result for “subjects with moderate AEs”: 50% (healthy Chinese adult volunteers; continuous intravenous infusion, 8 IU/kg/h, 5 days).
Under “log2 fold change”, `B3 (DDX46)` is recorded as 0.115 (peptide binding, SILAC pull-down; concentration not given; reference: non-acetylated over acetylated NIT1 peptide).
For `Polymyxin B`, the MIC was 2 µM (Klebsiella pneumoniae; broth microdilution, MH medium; carbapenem-resistant NCCP 15782; 16 h, 37 °C).
The IC50 of `buprenorphine` is reported as 35 µM (HeLa; cytotoxicity).
With `Polymyxin B` the survival was 0% (mouse; intraperitoneal, 30 mg/kg single dose, day 5).
`fengycin` gave a maximum fusion of 22 ± 10% (calcein leakage; DOPC/CHOL liposomes; concentration not given, with: 20 wt% PEG-8000).
The IC50 of `(−)-antroquinonol A` is reported as greater than 25 µM (HepG2; cytotoxicity, MTS; 72 h).
For `PKYVKQNTLKLAT`, “antigen-specific CD4 T cells” read 1.58% (stimulated healthy donor PBMCs; combinatorial multi-epitope tetramer staining, item: DRB1*01:01 tetramer; peptide; concentration not given; reference: CD4 T cells).
With `hexaarginine` the koff was 3330 ± 340 s⁻¹ (PorA peptide pore; peptide binding, planar bilayer single-channel recording; 0.5 µM, pH 7.4, +20 mV, trans side, 150 mM KCl).
For `GFGDLKSPAGLQVLNDYLADK (EEF1B2)`, “log2 fold change” read 1.47 (peptide binding, SILAC pull-down; concentration not given; reference: non-acetylated over acetylated NIT1 peptide).
For `IRILQRALF`, the IC50 was greater than 20 µM (Mamu-B*08301 MHC class I; peptide binding; peptide, Chinese rhesus macaque).
`pertussis toxin` has a p-PKA level of 27.3 MFI (immunostaining; humanized mouse, SAH model, middle cerebral artery; dose not given).
Under “CFU relative to caspofungin alone”, `colistin` is recorded as 1.23 and 0.904 and 0.369 (Aspergillus fumigatus; conidia; 80 µM, with: caspofungin 0.2 µg/mL; reference: caspofungin alone).
`B4 (cystatin B)` — result for “log2 fold change”: -0.522 (peptide binding, SILAC pull-down; concentration not given; reference: non-acetylated over acetylated NIT1 peptide).
With `NQRRQRKRR` the IC50 was greater than 20 µM (Mamu-B*08301 MHC class I; peptide binding; peptide, Chinese rhesus macaque).
With `RTLEDLLMGT` the specific lysis was 49.6% (Ca-Ski (HLA-A2+ HPV+); 111In release; peptide; concentration not given, 16 h, E:T 25:1 IVS 5, with: peptide-generated T-cell line).
With `nonaarginine` the kon was 3e+07 ± 3e+06 M⁻¹ s⁻¹ (PorA peptide pore; peptide binding, planar bilayer single-channel recording; 0.5 µM, pH 7.4, +40 mV, trans side, 150 mM KCl).
`KGCRCLGEG` has an IC50 of greater than 20 µM (Mamu-B*08301 MHC class I; peptide binding; peptide, Chinese rhesus macaque).
The MIC of `Polymyxin B` is reported as 2 µg/mL (Escherichia coli; broth microdilution; E27 clinical isolate; 20 h).
`B5 (CDK4)` — result for “log2 fold change”: 1.98 (peptide binding, SILAC pull-down; concentration not given; reference: non-acetylated over acetylated NIT1 peptide).
The mRNA level of `GWTLNSAGYLLGPHAVDNHRSFNDKHGFT-NH2 (C-amide)` is reported as 0.026 and 0.0368 and 0.111 and 0.037 and 0.0685 and 0.011 and 0.117 (RT-qPCR, item: Il1b; peptide, chicken, DSS-induced colitis, ileum; ip, 50 µM, unit not given; reference: Actb).
For `DnaJ homolog DNAJA1`, “log2 fold change” read 0.651 (peptide binding, SILAC pull-down; concentration not given; reference: non-acetylated over acetylated NIT1 peptide).
`aspterric acid` has an inhibition of 69.5% (hypocotyl length; Arabidopsis thaliana Col-0 seeds; 6.25 µg/mL).
`QLYNKPLCDV` has a specific lysis of 49.1% (Ca-Ski (HLA-A2+ HPV+); 111In release; peptide; concentration not given, 16 h, E:T 25:1 IVS 5, with: peptide-generated T-cell line).
Under “log2 fold change”, `B6 (DDX47)` is recorded as 0.0618 (peptide binding, SILAC pull-down; concentration not given; reference: non-acetylated over acetylated NIT1 peptide).

Repeated from above:
For `PKYVKQNTLKLAT`, “antigen-specific CD4 T cells” read 1.58% (stimulated healthy donor PBMCs; combinatorial multi-epitope tetramer staining, item: DRB1*01:01 tetramer; peptide; concentration not given; reference: CD4 T cells).
`B5 (CDK4)` — result for “log2 fold change”: 1.98 (peptide binding, SILAC pull-down; concentration not given; reference: non-acetylated over acetylated NIT1 peptide).
`KGCRCLGEG` has an IC50 of greater than 20 µM (Mamu-B*08301 MHC class I; peptide binding; peptide, Chinese rhesus macaque).
The IC50 of `buprenorphine` is reported as 35 µM (HeLa; cytotoxicity).
